# Published values of several laboratories.
# Parts stem from different laboratories: compare values within a part only.

# Set 1 — technique: protein binding microarray; molecule type: double-stranded DNA, one strand shown; sample: in vitro; tested at: not given; reference: not given; reading: higher = stronger binding
# Target: Histone acetyltransferase KAT6A, winged helix 2, GST fusion (KAT6A, Homo sapiens, UniProt Q92794, residues 85-181)
# Notes: 8-mer, flanks averaged, mean of 2 arrays, mostly near background
# Construct (chain): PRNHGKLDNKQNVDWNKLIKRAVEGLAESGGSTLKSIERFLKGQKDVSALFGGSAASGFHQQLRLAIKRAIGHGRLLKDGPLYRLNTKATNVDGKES
Oligonucleotide,E-score
CATATTAC,-0.0257
ATGTACAG,-0.203
CAAAAGTG,-0.0771
GGTCCGGA,0.15
AAGGACAG,-0.0244
ACCATATC,-0.128
AAAGAGAA,0.0534
AAACCACG,-0.146
GACTGAAA,0.0833
CATCTTAC,-0.231
ACCTTTGA,-0.0235
AAATGACC,-0.137
CAATTAAA,0.0506
ACCCGAAA,0.0428
ACCCGCAA,0.022
GGAAAAAC,-0.148

# Set 2 — technique: aptamer microarray, sandwich; molecule type: DNA with 2'F-ANA; sample: in vitro; tested at: 200 nM; together with: Cy3 exosite-II aptamer, 400 nM; reading: higher = stronger binding; oligonucleotide: GGTTGGTGTGGTTGG
# Target: Prothrombin, mature alpha-thrombin (F2, Homo sapiens, UniProt P00734)
# Notes: whole 15-mer aptamer, many near background
Modification,mean fluorescence intensity
2'F-ANA at 1 6 7 10 14,47.2 a.u.
2'F-ANA at 1 2 3 6 7 11 12 14,73.1 a.u.
2'F-ANA at 2 3 4 5 7 8 9 10 14,46.6 a.u.
2'F-ANA at 4 5 6 7 10,44.6 a.u.
2'F-ANA at 1 2 4 5 7 15,55.7 a.u.
2'F-ANA at 4 6 8 11 12 13 15,300 a.u.
2'F-ANA at 4 6 7 8 12 13 14,145 a.u.
2'F-ANA at 6 7 8 9 10,185 a.u.
2'F-ANA at 5 15,79 a.u.
2'F-ANA at 4 12 14,153 a.u.
2'F-ANA at 1 2 3 5 7 8 11 13 14 15,49.3 a.u.
2'F-ANA at 1 2 3 4 5 6 8 10 11 12 13,52.4 a.u.
2'F-ANA at 4 5 7 8 10 12 14,43.1 a.u.
2'F-ANA at 1 5 6 8 9 12 14,46.2 a.u.
2'F-ANA at 5 7 8 9 10 11 12 13,51 a.u.
2'F-ANA at 1 2 3 4 6 7 8 9 10 13 15,57.3 a.u.
2'F-ANA at 2 4 5 7 9 10 13 14 15,54.9 a.u.
2'F-ANA at 3 4 7 9,766 a.u.
2'F-ANA at 2 4 5 6 7 10 12 13 14,46 a.u.
2'F-ANA at 1 5 6 8 9 11 12 14 15,52.3 a.u.

# Set 3 — technique: RNA Bind-n-Seq; molecule type: RNA; sample: in vitro; tested at: 200 nM; notes: whole 134-nt RNA, ends assumed; together with: 150 mM LiCl; reference: input library; reading: higher = stronger binding; library: 7-deaza-guanosine replaces G
# Target: Fragile X messenger ribonucleoprotein 1, C-terminal low-complexity region (Fmr1, Mus musculus, UniProt P35922)
Oligonucleotide,log2 enrichment
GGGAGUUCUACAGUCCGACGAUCCCUCAAGUCCUGUGCUACACAUCGUAUGUACCGAAUCGGGAGGGGAGGAGGGGAAAGUAUUAUGUUACGCCGUUCGGAUCUGCACUUCCAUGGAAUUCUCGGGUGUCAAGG,-0.923
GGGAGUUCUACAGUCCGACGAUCGCAGGAAGUAAAAACAAAUGGAAAUGCUUCGGAUAGUGGCCGGGGUGGGGGUUGCUAAGGAAAGGGUGGGAUGGGAGUGGGUAAAGAGUUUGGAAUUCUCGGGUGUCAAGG,1.56
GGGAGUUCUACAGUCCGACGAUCCUGUGCUACACAUCGUAUGUACCGAAUCGGCCCCCCCGGGCCCCCCCGGGGCCCCCCCGGGGAAAGUAUUAUGUUACGCCGUUCGGAUCUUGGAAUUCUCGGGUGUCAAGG,-0.942
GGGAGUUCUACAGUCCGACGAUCUCAAGUCCUGUGCUACACAUCGUAUGUACCGAAUCGGCCCGGGCCCGGCCCGGGGAAAGUAUUAUGUUACGCCGUUCGGAUCUGCACUUCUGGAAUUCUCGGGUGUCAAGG,-1.38
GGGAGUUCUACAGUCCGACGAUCCAAGUCCUGUGCUACACAUCGUAUGUACCGAAUCGGUUUGGUUUUUUUGGAAAGGAAAGUAUUAUGUUACGCCGUUCGGAUCUGCACUUCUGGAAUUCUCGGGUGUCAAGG,-1.15
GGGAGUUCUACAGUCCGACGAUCCCUGUGCUACACAUCGUAUGUACCGAAUCGGGGAAAGGGGUUUUUUUGGGGUUUUUGGGGAAAGUAUUAUGUUACGCCGUUCGGAUCUGCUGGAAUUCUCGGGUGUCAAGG,-0.536
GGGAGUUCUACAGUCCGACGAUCCCUGUGCUACACAUCGUAUGUACCGAAUCGGGAAAAAAGGGAAAAAAGGGGAAAAAAGGGAAAGUAUUAUGUUACGCCGUUCGGAUCUGCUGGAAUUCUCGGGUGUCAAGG,-0.27
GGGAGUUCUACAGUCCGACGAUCAAGUCCUGUGCUACACAUCGUAUGUACCGAAUCGGAAAAAAAGGAAAAAAAGGUGGAAAGUAUUAUGUUACGCCGUUCGGAUCUGCACUUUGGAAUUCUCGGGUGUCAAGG,-2.2

# Set 4 — technique: protein-binding microarray; molecule type: double-stranded DNA, one strand shown; sample: in vitro; tested at: 250 nM; notes: 60-bp whole probe; together with: salmon DNA 0.4 mg/ml; reference: random background probes; reading: higher = stronger binding; all sequences stand within: GCCTAGCAC … GTCTTGATTCGCTTGACGCTGCTG
# Target: Interferon regulatory factor 5, full length, phosphomimetic (IRF5, Homo sapiens, UniProt Q13568-2, residues 1-514, K96S/S451D/S453D/S456D/S462D)
Oligonucleotide,log fluorescence [z-score]
GATGATATCGGGTTTCGAGACGTGCTA,3.89
GACGGTATCGGGTATCGGTACGTGCTA,5.4
GACGTACTGGGGTTTCGAGACGTGCTA,0.994
AAGTGTTTGGTGTCTTTTGTGGTGCTA,0.0123
TTAGGAGTGGGGACTGGGTTAGTGCTA,-0.347
GACCGTCTCGGACTGGGGACGTGCTAG,-0.45
GACGATTTCGACTTTCGGGACGTGCTA,6.61
GACGGTTCTGGTTTCGGGACGTGCTAG,3.94
ACCATTTTGGTTTTCCTTATGTGCTAG,1.36
GACAAACTGGGGTATCGAGACGTGCTA,0.404
TCATTTTTACCTGTGGTACTGTGCTAG,0.611
GACGACATCAGTCTCGAGACGTGCTAG,0.106
TTAGGTTTAGGGTATCGGTTAGTGCTA,2.38
TGAAAATTCTAATTAGAATTGTGCTAG,0.977

# A few entries again (set 4):
Oligonucleotide,log fluorescence [z-score]
GACGATTTCGACTTTCGGGACGTGCTA,6.61
TCATTTTTACCTGTGGTACTGTGCTAG,0.611
TTAGGTTTAGGGTATCGGTTAGTGCTA,2.38
ACCATTTTGGTTTTCCTTATGTGCTAG,1.36
